Measured values of several laboratories.
± gives the spread as reported.

SMILES	test	test system	setting	how to read	AUC(0-last)
CC(C)NC(=O)COc1cccc(-c2nc(Nc3ccc4[nH]ncc4c3)c3ccccc3n2)c1	–	human male, plasma	oral, 200 mg once daily, day 12, fed, geometric mean, together with: dabigatran etexilate	–	12000 ng·h/mL
CN(C)C(=O)c1cc2cnc(Nc3ccc(N4CCNCC4)cn3)nc2n1C1CCCC1	–	human, normal renal function, plasma	oral, 400 mg, single dose, geometric mean	–	4030 ng·h/mL
C[C@H]1CN(C(=O)CC#N)[C@]12CCN(c1ncnc3[nH]ccc13)C2	–	healthy adult humans, plasma	oral, 12 mg single, geometric mean	–	389 ng·h/mL
Cc1noc(C)c1-c1cc(C(O)(c2ccccn2)c2ccccn2)c2nc(C3CC3)[nH]c2c1	–	human patients, fasted, plasma	oral, 3 mg once daily, cycle 1 day 15, together with: enzalutamide once daily	–	653 ng·h/mL
Cn1c(=O)oc2ccc(-c3ccc(C[C@@H](C#N)NC(=O)[C@@H]4CNCCCO4)cc3)cc21	–	human, moderate renal impairment, plasma	oral, 25 mg single dose, mean	–	4450 ng·h/mL
CC(C)n1nc(-c2ccc3oc(N)nc3c2)c2c(N)ncnc21	–	human, plasma	oral, 2 mg once daily, cycle 1 day 1	–	134 ng·h/mL
Cc1cc(Nc2cc3ncccc3c(N[C@@H]3C[C@H]4CC[C@@H](C3)N4CCC#N)n2)n[nH]1	–	human, plasma	10 mg single dose, mean	–	0.777 ng·h/mL
Cn1cc(-c2cn3nccc3c(-c3cnn([C@]4(CC#N)C[C@@H](C#N)C4)c3)n2)cn1	–	healthy human fasted	1600 mg single dose	–	9920 ng·h/mL
CC(C)c1nc(N(C)S(C)(=O)=O)nc(-c2ccc(F)cc2)c1/C=C/[C@@H](O)C[C@@H](O)CC(=O)O	–	human, plasma	oral, 10 mg, together with: vepdegestrant 200 mg	–	34.7 ng·h/mL
N#CCNC(=O)c1ccc(-c2ccnc(Nc3ccc(N4CCOCC4)cc3)n2)cc1	–	healthy human volunteers, plasma	oral, 200 mg single dose, day 1, fasted, given alone	–	3140 ng·h/mL
CC(F)(F)c1cc(F)ccc1-c1sc2cc(O)ccc2c1Oc1ccc(/C=C/C(=O)O)cc1	–	human, serum	oral, 600 mg once daily, cycle 1 day 28, fasted, mean	–	26900 ng·h/mL
Cn1nc2c(=O)n(C3CC3)cnc2c1[C@](O)(c1cnc(C(F)(F)F)c(Cl)c1)C(F)(F)F	–	infected humanized SCID mice, blood	3 mg/kg daily, 6 days	–	149 µM·h
CO[C@H]1C[C@@H]2CC[C@@H](C)[C@@](O)(O2)C(=O)C(=O)N2CCCC[C@H]2C(=O)O[C@H]([C@H](C)C[C@@H]2CC[C@@H](OC(=O)NCCOCCOCCOCCOCCOCCOCCOCCOCCC(=O)N3CCc4cc(Cn5nc(-c6ccc7oc(N)nc7c6)c6c(N)ncnc65)ccc4C3)[C@H](OC)C2)C[C@@H](O)[C@H](C)/C=C(\C)[C@@H](O)[C@@H](OC)C(=O)[C@H](C)C[C@H](C)/C=C/C=C/C=C/1C	–	human patients, plasma	intravenous, 10 mg, cycle 1 day 15, 2 h infusion	–	693 ng·h/mL
COC(=O)N[C@@H](C)CNc1nccc(-c2cn(C(C)C)nc2-c2cc(Cl)cc(NS(C)(=O)=O)c2F)n1	–	human, plasma	oral, 50 mg, together with: posaconazole 400 mg twice daily	geometric mean	5790 ng·h/mL
CCOc1c([C@H](C)n2nc(C)c3c(N)ncnc32)cc(Cl)c(F)c1[C@@H]1CNC(=O)C1	–	human patients, plasma	oral, 10 mg once daily, cycle 1 day 15	–	6.91 ± 2.33 µM·h
COc1ncc(-c2nc3c(n2C(C)C)[C@H](c2ccc(Cl)cc2)N(c2cc(Cl)cn(C)c2=O)C3=O)c(OC)n1	LC-MS/MS	human, plasma	oral, 15 mg, cycle 1 day 14, low-dose arm	–	689 ng·h/mL
Cc1cc(C)c(CNC(=O)c2cc(Cl)c3c(c2C)O[C@@](C)([C@H]2CC[C@H](N(C)C)CC2)O3)c(=O)[nH]1	–	human, plasma	oral, 200 mg [14C] single dose	–	13600 ng·h/mL
C[C@@H](Oc1ccc(S(C)(=O)=O)cc1C(=O)N1C[C@@H]2C[C@]2(c2cc(C(F)(F)F)on2)C1)C(F)(F)F	–	healthy human volunteers, fed, plasma	oral, 10 mg single, adjusted geometric mean	–	4.61 µM·h
CN1CC[C@@H](c2c(O)cc(O)c3c(=O)cc(-c4ccc(C(F)(F)F)cc4Cl)oc23)[C@@H]1CO	noncompartmental	human patients, plasma	oral, 100 mg intermittent, cycle 1, after day 1	–	3010 ng·h/mL
C=CC(=O)N(C)CCOc1c(N)ncnc1-c1cc(F)cc(NC(=O)c2ccc(C3CC3)cc2F)c1C	–	human, fed, whole blood	oral, 60 mg single dose, food effect crossover, adjusted geometric mean	–	224 ng·h/mL
O=C(c1nc2n(n1)[C@H](c1ccccc1)C[C@@H]2F)C1CC1	geometric LS mean	human, fasted, plasma	oral, 75 mg single dose	–	12900 ng·h/mL
C[C@@H](N)c1cc(Cl)ccc1Cn1c(=S)[nH]c(=O)c2[nH]ccc21	–	human, both sexes, matched healthy controls, plasma	oral, 2.5 mg single dose, geometric mean	–	0.264 µM·h

Excerpt of the above:
SMILES	test	test system	setting	how to read	AUC(0-last)
C[C@@H](Oc1ccc(S(C)(=O)=O)cc1C(=O)N1C[C@@H]2C[C@]2(c2cc(C(F)(F)F)on2)C1)C(F)(F)F	–	healthy human volunteers, fed, plasma	oral, 10 mg single, adjusted geometric mean	–	4.61 µM·h
Cn1cc(-c2cn3nccc3c(-c3cnn([C@]4(CC#N)C[C@@H](C#N)C4)c3)n2)cn1	–	healthy human fasted	1600 mg single dose	–	9920 ng·h/mL
C=CC(=O)N(C)CCOc1c(N)ncnc1-c1cc(F)cc(NC(=O)c2ccc(C3CC3)cc2F)c1C	–	human, fed, whole blood	oral, 60 mg single dose, food effect crossover, adjusted geometric mean	–	224 ng·h/mL
